Results of several laboratories.
Numbers after ± are the reported error.

With `CCCC[C@H](NC(=O)COCCOCCNC(=O)CN1CCN(CC(=O)O)CCN(CC(=O)O)CC1)C(=O)N[C@H]1CC(=O)NCCCC[C@@H](C(N)=O)NC(=O)[C@H](Cc2c[nH]c3ccccc23)NC(=O)[C@H](CCCNC(=N)N)NC(=O)[C@@H](Cc2ccccc2)NC(=O)[C@H](Cc2c[nH]cn2)NC1=O` [copper-64 labelled] the tissue uptake was 1.51 ± 0.23 %ID (C57 mice, intestine; intravenous, 0.37 MBq, 2 h).
`CC(C)C[C@H](NC(=O)[C@@H](CCCCNC(=O)CCCCCNC(=O)CN1CCN(CC(=O)O)CCN(CC(=O)O)CCN(CC(=O)O)CC1)NC(=O)[C@H](Cc1ccc(O)cc1)NC(=O)[C@H](CO)NC(=O)[C@H](Cc1c[nH]c2ccccc12)NC(=O)[C@H](Cc1cnc[nH]1)NC(=O)[C@@H]1CCC(=O)N1)C(=O)N[C@@H](CCCNC(=N)N)C(=O)N1CCC[C@H]1C(=O)NCC(N)=O` [indium-111 labelled] has a tissue uptake of 0.12 ± 0.03 %ID/g (female athymic nude mouse, muscle; intravenous, 0.037 MBq, 4 h).
The tissue uptake of `CCCC[C@H](NC(=O)CNC(=O)CNC(=O)CN1CCN(CC(=O)O)CCN(CC(=O)O)CC1)C(=O)N[C@H]1CC(=O)NCCCC[C@@H](C(N)=O)NC(=O)[C@H](Cc2c[nH]c3ccccc23)NC(=O)[C@H](CCCNC(=N)N)NC(=O)[C@@H](Cc2ccccc2)NC(=O)[C@H](Cc2c[nH]cn2)NC1=O` [technetium-99m labelled] is reported as 0.12 ± 0.12 %ID/g (C57 mouse, skin; iv, 0.037 MBq, 24 h).
For `CCCC[C@@H]1NC(=O)[C@@H](CC(C)C)NC(=O)[C@H](CCCCNC(=O)CN2CCN(CC(=O)O)CCN(CC(=O)O)CC2)NC(=O)[C@@H](CO)NC(=O)[C@H](Cc2c[nH]cn2)NC(=O)[C@@H](Cc2c[nH]c3ccccc23)NC1=O` [copper-64 labelled], “plasma protein binding” read 81% (refers to: 64Cu; mouse plasma; 37 °C).
`N=C(N)NCCC[C@@H]1NC(=O)[C@H](CCCCNC(=O)CNC(=O)CNC(=O)CNC(=O)CC[C@H](NC(=O)CNC(=O)CNC(=O)CNC(=O)CC[C@H](NC(=O)CN2CCN(CC(=O)O)CCN(CC(=O)O)CCN(CC(=O)O)CC2)C(=O)NCC(=O)NCC(=O)NCC(=O)N[C@@H](CCC(=O)NCC(=O)NCC(=O)NCC(=O)NCCCC[C@@H]2NC(=O)[C@@H](Cc3ccccc3)NC(=O)[C@H](CC(=O)O)NC(=O)CNC(=O)[C@H](CCCNC(=N)N)NC2=O)C(=O)NCC(=O)NCC(=O)NCC(=O)NCCCC[C@@H]2NC(=O)[C@@H](Cc3ccccc3)NC(=O)[C@H](CC(=O)O)NC(=O)CNC(=O)[C@H](CCCNC(=N)N)NC2=O)C(=O)NCC(=O)NCC(=O)NCC(=O)NCCCC[C@@H]2NC(=O)[C@@H](Cc3ccccc3)NC(=O)[C@H](CC(=O)O)NC(=O)CNC(=O)[C@H](CCCNC(=N)N)NC2=O)NC(=O)[C@@H](Cc2ccccc2)NC(=O)[C@H](CC(=O)O)NC(=O)CNC1=O` [indium-111 labelled] has a tissue uptake of 1.5 ± 0.76 %ID/g (female athymic nu/nu mice, heart; intravenous, 0.5 h).
`N=C(N)NCCC[C@@H]1NC(=O)[C@H](CCCCNC(=O)CNC(=O)CNC(=O)CNC(=O)CC[C@H](NC(=O)CNC(=O)CNC(=O)CNC(=O)CN2CCN(CC(=O)O)CCN(CC(=O)O)CCN(CC(=O)O)CC2)C(=O)NCC(=O)NCC(=O)NCC(=O)NCCCC[C@@H]2NC(=O)[C@@H](Cc3ccccc3)NC(=O)[C@H](CC(=O)O)NC(=O)CNC(=O)[C@H](CCCNC(=N)N)NC2=O)NC(=O)[C@@H](Cc2ccccc2)NC(=O)[C@H](CC(=O)O)NC(=O)CNC1=O` [copper-64 labelled] gave a tissue uptake of 8.83 ± 0.96 %ID/g (athymic nu/nu mouse, female, kidney; intravenous, 0.5 h).
`CN1C(=O)[C@@H](Cc2ccc(O)cc2)NC(=O)CNC(=O)[C@H](Cc2ccc3ccccc3c2)NC(=O)[C@H](CCCNC(=N)N)NC(=O)[C@H]1CCCNC(=O)c1ccc(CNC(=O)CN2CCN(CC(=O)O)CCN(CC(=O)O)CCN(CC(=O)O)CC2)cc1` [gallium-68 labelled] — result for “absorbed dose coefficient”: 0.00867 mGy/MBq (adult reference man, from C57BL/6 mice data, red marrow).
For `CC(C)[C@@H](NC(=O)[C@@H](C)c1cccc(C(=O)c2ccccc2)c1)C(=O)N[C@H](CCC(=O)O)C(=O)N[C@@H](C(=O)N[C@H](CCC(=O)O)C(=O)O)C(C)C`, “minimum gelation concentration” read ≥ 5 mM (water).
`CCCC[C@H](NC(=O)CNC(=O)CNC(=O)CN1CCN(CC(=O)O)CCN(CC(=O)O)CCN(CC(=O)O)CC1)C(=O)N[C@H]1CC(=O)NCCCC[C@@H](C(N)=O)NC(=O)[C@H](Cc2c[nH]c3ccccc23)NC(=O)[C@H](CCCNC(=N)N)NC(=O)[C@@H](Cc2ccccc2)NC(=O)[C@H](Cc2c[nH]cn2)NC1=O` [lutetium-177 labelled] has a tissue uptake of 0.73 ± 0.1 %ID/g (C57 mouse, female, liver; intravenous, 0.037 MBq, 2 h).
For `C/C=C(/C)C(=O)O[C@H]1C(C)=C2[C@H]([C@@H]1OC(=O)CCCCCCC)[C@@](C)(OC(C)=O)C[C@H](OC(=O)CCCCCCCCCCCNC(=O)C[C@H](N)C(=O)N[C@@H](CCC(=O)N[C@@H](CCC(=O)N[C@@H](CCC(=O)N[C@@H](CCC(=O)O)C(=O)O)C(=O)O)C(=O)O)C(=O)O)[C@@]1(O)[C@H]2OC(=O)[C@@]1(C)O`, “fraction eliminated in beta phase” read > 90% (human patients; intravenous infusion).
`CC(C)C[C@H](NC(=O)[C@H](Cc1ccc(O)cc1)NC(=O)[C@H](CO)NC(=O)[C@H](Cc1c[nH]c2ccccc12)NC(=O)CNC(=O)[C@H](CCCCN)NC(=O)[C@@H](N)Cc1c[nH]c2ccccc12)C(=O)N[C@@H](Cc1c[nH]c2ccccc12)C(=O)N[C@H](C(=O)N[C@@H](CCC(N)=O)C(=O)N[C@@H](CCC(N)=O)C(=O)N[C@@H](C)C(=O)NCC(=O)NCC(=O)NCC(=O)N[C@@H](CO)C(=O)N[C@@H](CSC1CC(=O)N(CCNC(=O)CCCCCN2C(=CC=C3CCCC(C=CC4=[N+](CCCCS(=O)(=O)O)c5ccc(S(=O)(=O)[O-])cc5C4(C)C)=C3Oc3ccc(S(=O)(=O)O)cc3)C(C)(C)c3cc(S(=O)(=O)O)ccc32)C1=O)C(N)=O)[C@@H](C)O` (stereo partly drawn) has a half-life of 5.1 h (RP-HPLC; mouse serum; 30 µM, 37 °C).
The remaining intact of `C[C@@H](O)[C@@H]1NC(=O)[C@H](CCCCN)NC(=O)[C@@H](Cc2c[nH]c3ccccc23)NC(=O)[C@H](Cc2ccc(O)cc2)NC(=O)[C@@H](NC(=O)[C@@H](Cc2ccccc2)NC(=O)CN2CCN(CC(=O)O)CCN(CC(=O)O)CCN(CC(=O)O)CC2)CSSC[C@@H](C(=O)N[C@H](CO)[C@@H](C)O)NC1=O` [gallium-67 labelled] is reported as 82.8 ± 0.9% (radio-TLC; mouse plasma; 24 h, 37 °C, 67Ga-labelled).

Excerpt of the above:
The remaining intact of `C[C@@H](O)[C@@H]1NC(=O)[C@H](CCCCN)NC(=O)[C@@H](Cc2c[nH]c3ccccc23)NC(=O)[C@H](Cc2ccc(O)cc2)NC(=O)[C@@H](NC(=O)[C@@H](Cc2ccccc2)NC(=O)CN2CCN(CC(=O)O)CCN(CC(=O)O)CCN(CC(=O)O)CC2)CSSC[C@@H](C(=O)N[C@H](CO)[C@@H](C)O)NC1=O` [gallium-67 labelled] is reported as 82.8 ± 0.9% (radio-TLC; mouse plasma; 24 h, 37 °C, 67Ga-labelled).
